Results gathered from unrelated publications.
Lines come from different studies, so protocols differ.
Target: Dual specificity tyrosine-phosphorylation-regulated kinase 4 (DYRK4, Homo sapiens, UniProt Q9NR20)

| Structure (SMILES) | effect on | mode | tested at | together with | relative to | measurement | value |
| --- | --- | --- | --- | --- | --- | --- | --- |
| NC(=O)[C@@H](O)C[C@H]1CCc2sc3ncnc(O[C@H]4CC[C@H](N5CCOCC5)CC4)c3c21 | enzyme activity | inhibitor | 10 µM |  |  | inhibition | -3% |
| C=CC(=O)N1Cc2nc(-c3cc(-c4cc(Cl)cnc4Cl)c(F)cc3F)n(-c3ccncn3)c2C1 | cell-free assay | inhibitor | 1 µM |  |  | inhibition | 2.9% |
| NC(=O)C[C@H]1CCc2sc3ncnc(O[C@H]4CC[C@H](N5CCOCC5)CC4)c3c21 | enzyme activity | inhibitor | 10 µM |  |  | inhibition | -1% |
| Nc1ncc(-c2cc(-c3cnn(CC(F)(F)F)c3)ncc2F)nc1C(=O)NC1CNCC(F)C1 (centres unmarked) | enzyme activity |  | 1 µM |  | DMSO control | remaining activity | 107% |
| Cc1cccc(O[C@H]2CCC[C@@H](C(C)CNCc3ccncc3)C2)c1 (relative stereo) | enzyme activity | inhibitor | 10 µM |  |  | inhibition | -6% |
| CN1CCN(Cc2ccc(-c3ccc(CO[C@H]4CCC[C@@H]4NC(=O)c4cc(-c5cnn(C)c5)cnc4N)cc3)cc2)CC1 | enzyme activity | inhibitor | 0.1 µM |  |  | inhibition | 1% |
| CCn1cc(C(=O)O)c(=O)c2c(N)c(F)c(NC3CCCCC3)cc21 | kinase activity |  | 0.1 µM | ATP at Km |  | inhibition | 4.2% |
| C=CC(=O)Nc1cccc(-c2cnc3[nH]cc(C(=O)NC(C)(C)C)c3n2)c1 | enzyme activity | inhibitor | 0.1 µM |  |  | inhibition | 4% |

Some of these lines once more:
| Structure (SMILES) | effect on | mode | tested at | together with | relative to | measurement | value |
| --- | --- | --- | --- | --- | --- | --- | --- |
| Cc1cccc(O[C@H]2CCC[C@@H](C(C)CNCc3ccncc3)C2)c1 (relative stereo) | enzyme activity | inhibitor | 10 µM |  |  | inhibition | -6% |
